Assay results gathered from unrelated publications.
Every numbered part comes from another study and shows a few of its results, in no order. Changes are numbered by the printed parent chain.

Set 1 — method: protein binding microarray; molecule type: double-stranded DNA, one strand shown; matrix: in vitro; concentration: not given; relative to: not given; reading: higher = stronger binding
Target: Histone acetyltransferase KAT6A, both winged helices, GST fusion (KAT6A, Homo sapiens, UniProt Q92794, residues 1-181)
Setting: 8-mer, flanks averaged, mean of 2 arrays, mostly near background
Construct (chain): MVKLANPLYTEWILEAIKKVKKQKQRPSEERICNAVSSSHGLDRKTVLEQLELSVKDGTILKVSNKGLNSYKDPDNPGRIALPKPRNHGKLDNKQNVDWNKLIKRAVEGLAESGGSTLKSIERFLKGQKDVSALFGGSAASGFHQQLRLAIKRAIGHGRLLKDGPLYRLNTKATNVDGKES
Strand | E-score
AAATTGCG | 0.227
CATGCCTA | -0.124
TCTCTGCA | -0.145
AAACCACC | -0.0953
GGGGACTA | -0.136
AGAGTCAC | -0.139
AGGAGCTG | -0.24
CTAGTTAC | -0.00454
CGAACCCC | -0.0614
CGCAGCCC | 0.112
CGGCATTC | 0.29
CCGGGACA | 0.186
GCTAGGGA | -0.0579

Set 2 — method: RNA Bind-n-Seq; molecule type: RNA; matrix: in vitro; concentration: 200 nM; setting: whole 134-nt RNA, ends assumed; with: 150 mM KCl; relative to: input library; reading: higher = stronger binding
Target: Ras GTPase-activating protein-binding protein 1, full length (G3BP1, Homo sapiens, UniProt Q13283)
UniProt Q13283, sequence (whole entry, looked up): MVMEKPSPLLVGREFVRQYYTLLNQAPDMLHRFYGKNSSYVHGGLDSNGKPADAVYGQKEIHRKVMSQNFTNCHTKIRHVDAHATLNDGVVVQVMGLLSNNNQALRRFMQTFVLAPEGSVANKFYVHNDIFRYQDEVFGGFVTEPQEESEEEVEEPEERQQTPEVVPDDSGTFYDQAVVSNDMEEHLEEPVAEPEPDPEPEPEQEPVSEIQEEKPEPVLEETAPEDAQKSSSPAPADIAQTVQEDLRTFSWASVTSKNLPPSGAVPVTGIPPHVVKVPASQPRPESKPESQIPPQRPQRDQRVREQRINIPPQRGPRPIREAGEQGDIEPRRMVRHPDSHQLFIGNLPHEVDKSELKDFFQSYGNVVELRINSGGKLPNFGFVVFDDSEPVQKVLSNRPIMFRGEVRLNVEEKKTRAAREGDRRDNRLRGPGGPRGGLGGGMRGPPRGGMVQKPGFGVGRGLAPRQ
Constant ends, left off below: GGGAGUUCUACAGUCCGACGAUC … UGGAAUUCUCGGGUGUCAAGG
Strand | log2 enrichment
UGGGAGGUGGAUUUUGUUUAUUUUUUUAGCUCAAUUCCAGGGGUGGGAAUUUUUUUUUAAUAUGUGUCAUGAAUAAAGUUGUUUUUGAAA | 0.53
CUCCAGAAAGCAGUGGGGCCUGAGAUCACCAAGACAGACCUGGUCCCUGCCUUCCAGAACCUGAUGAAAGACUGUGAGGCCGAGGUGAGG | 0.0205
UAACUUUAGAGGAGGAUCUGAUGGAUAUGGCAGUGGACGUGGAUUUGGGGAUGGCUAUAAUGGGUAUGGAGGAAGACCUGGAGGUGGCAA | 0.135
UCCUGUGCUACACAUCGUAUGUACCGAAUCGGGCCCCCCGGCCCCCCGGGCCCCCCGGGGAAAGUAUUAUGUUACGCCGUUCGGAUCUGC | -0.031
CACAGACAACACGCACCCACACAGACACAGAGGGAAGGGGUUGGGAUGGGGACAGGGUGCACAGCAGGGCGGGGUAGGACCCCAGCCCCA | 1.78
AAGUCCUGUGCUACACAUCGUAUGUACCGAAUCGGUUUUUGGUUUUUGGGUUUUUGGAAAGUAUUAUGUUACGCCGUUCGGAUCUGCACU | -1.35
CAAGUCCUGUGCUACACAUCGUAUGUACCGAAUCGGGAAAAAAAGGGAGGGAGGGAAAGUAUUAUGUUACGCCGUUCGGAUCUGCACUUC | 0.652

Set 3 — target: CCNB3, cyclin fold, Cln2 fusion (human); method: yeast growth competition, sequencing; matrix: yeast; setting: weak parent motif; relative to: not given; reading: higher = stronger binding
Parent: ORC1 docking peptide (human); PRARKRLELGNLG
Change | normalised enrichment score
L7F | -0.168
L7P | -0.451
R6N | 0.407
G13I | 0.253
R4C | 0.00661
L9M | 0.204
N11F | 0.413
A3V | 0.0357
A3I | -0.228
L12F | 0.156
G10N | 0.295

Set 4 — method: DHFR PCA, deep sequencing; matrix: yeast; with: (+)-ABA 1.4 µM; relative to: wild-type fitted maximum; reading: higher = stronger binding
Target: ABI1, truncated, D143A, DHFR fusion (Arabidopsis thaliana)
Setting: methotrexate growth selection, single substitutions
Parent: PYL1, truncated, DHFR fusion (Arabidopsis thaliana); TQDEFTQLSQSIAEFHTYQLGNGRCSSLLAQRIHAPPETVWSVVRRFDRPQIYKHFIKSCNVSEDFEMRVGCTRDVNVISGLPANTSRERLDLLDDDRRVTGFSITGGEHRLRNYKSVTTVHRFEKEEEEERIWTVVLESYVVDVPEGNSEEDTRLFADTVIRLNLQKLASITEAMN; partner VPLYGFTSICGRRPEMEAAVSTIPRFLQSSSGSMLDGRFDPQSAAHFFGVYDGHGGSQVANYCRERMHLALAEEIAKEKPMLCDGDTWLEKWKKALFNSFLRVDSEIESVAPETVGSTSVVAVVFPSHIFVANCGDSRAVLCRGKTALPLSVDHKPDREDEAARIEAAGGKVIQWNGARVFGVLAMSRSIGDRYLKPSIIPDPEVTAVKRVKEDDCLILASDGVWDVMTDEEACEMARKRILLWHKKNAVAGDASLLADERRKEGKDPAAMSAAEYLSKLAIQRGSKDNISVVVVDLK
Change | relative binding score
N114K | 3.4%
D97A | 62.3%
L164P | 24.9%
H16R | 0.168%
I57Q | 7.34%
E89P | 1.03%
D3F | 20.7%
L169T | -8.36%
E151W | 8.67%
T135N | -3.26%
Q2T | 62.2%
T1N | 54.1%
L166N | -22.1%
S117Y | -12.9%
F66L | 15.9%
S63Y | 4.78%
S171P | 8.88%

Repeated from above (set 1):
Strand | E-score
GCTAGGGA | -0.0579
GGGGACTA | -0.136
AAACCACC | -0.0953
